# Assay results gathered from unrelated publications.
# Every numbered part comes from another study and shows a few of its results, in no order.

# Series 1 — method: protein binding microarray; molecule type: double-stranded DNA, one strand shown; sample: in vitro; tested at: not given; relative to: not given; reading: higher = stronger binding
# Target: Histone acetyltransferase KAT6A, winged helix 2, GST fusion (KAT6A, Homo sapiens, UniProt Q92794, residues 85-181)
# Setting: 8-mer, flanks averaged, mean of 2 arrays, mostly near background
# Residues (chain): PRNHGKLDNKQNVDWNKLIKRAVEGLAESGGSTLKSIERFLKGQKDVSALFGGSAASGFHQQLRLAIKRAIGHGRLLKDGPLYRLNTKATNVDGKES
Oligonucleotide,E-score
GTAAAGAA,0.0195
AGACTCCA,-0.138
CATAACAA,0.117
GATTGACC,-0.148
GGGGTGAC,0.0662
ATCGCGAC,0.142
ACCCGCCG,0.203
AGTCTCAT,-0.212
AATTACCA,-0.049
AAGTCGTC,-0.179
CAGATGCG,0.104
AGCCTCCA,0.0656
AAGGTACG,-0.159
ATAACTTC,0.0803
CGAGGTAC,0.0665
ACTTCCAC,-0.0864
CTCGGTGC,0.111
AACCCAGA,0.0549
ATCACGGA,0.137
CCAAGATA,-0.0171
GAGTATGC,-0.015
CGGGCACA,0.011
GAAATGCA,-0.0341
GGTGTCCA,0.0303
AGGAGGTC,0.00881

# Series 2 — method: RNA Bind-n-Seq; molecule type: RNA; sample: in vitro; tested at: 100 nM; relative to: input RNA pool; reading: higher = stronger binding
# Target: RING finger protein unkempt homolog, zinc fingers 1-6, SBP tag (UNK, Homo sapiens, UniProt Q9C0B0, residues 30-357)
# Chain of UniProt Q9C0B0 (30-357, looked up): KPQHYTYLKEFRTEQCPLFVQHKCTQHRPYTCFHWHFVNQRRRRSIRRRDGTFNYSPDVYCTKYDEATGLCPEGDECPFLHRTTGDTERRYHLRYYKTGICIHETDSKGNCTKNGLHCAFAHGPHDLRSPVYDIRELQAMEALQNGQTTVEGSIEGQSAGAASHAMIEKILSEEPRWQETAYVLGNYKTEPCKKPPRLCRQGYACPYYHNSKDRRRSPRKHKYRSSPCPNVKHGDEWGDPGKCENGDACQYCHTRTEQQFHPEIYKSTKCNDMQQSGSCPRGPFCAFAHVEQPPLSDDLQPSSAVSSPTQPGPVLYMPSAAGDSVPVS
# Setting: RNA with constant flanks, vertebrate orthologous sites, ends assumed
# All sequences stand within: GGGAGUUCUACAGUCCGACGAUC … CAACAGAGGAUUGAGCAUCA
Oligonucleotide,bound/input enrichment [ratio]
GAAAUUCCCCAUUGUCACUGAGAACCACCAAAUCUGACUUUUACAUUUGGUCUCAGAAUUUAGGUUCCUGCCCCCCCCUUCCCCCCUUUUUUUUAAACAGUUUUCAAAAGUUCUUAAAGG,0.494
ACGCUUUGAUAUUAAAUUUGACAUAAAAAGCAGCUGAUUGUAAGCACAACUCUCUCCUCCUAGCCAUUUAAAAAGGUAAAAAACAAAAAAGAAAACCUACUAGUCUUGAACAAACUGUCA,0.956
AUGUUGUGUCAAAUAUGUCUGCCCAGAUUAGUAUCACCCUAUAAAUAUUAUCAAGAAAUUUACCUAGAGUCUUCUUAGGUAUUGAAUUAUAUAUCCAGCAUUUAAAGUGAAUUUGAGAUG,0.637
UUCAGGCACAACUGACUGGUUCACAGCUUCCCUUACAUAGUUAUCUAUCAAGUGCAAGUAUUGGUAAUUUUCAGGAAACAUCCAGGCAGUCAUCUUUAUCCUGUAGCUCAAUUCGAGAUU,0.913
AGUAGUUUUAAGCUUGUUUGCACAGUUCUUUUUUUCCAUUGGAAAUGGAAUUCAUUGCCUUAGGUCUUUUUAAAUAGUGUAUUAUCGUUGGGGCUGGCUCUGUGCUUGAAAACCAGUUUA,2.89
AGCUUCUGGCGACAUUUGGCCUGGCCUUUCAGCAUAUGAUAACAGUCCAAGGUCACCCCAUAGUCCUUCAAUUGCCACCCCACCUAGUCAGAGUUCAUCUUGCUCUGAUGCCCCUUUGCU,0.747
AUCCCUGAGUGACAGUAUGCCAUCUGUAGCGGAUUCGCACUCUAGUCAUUUUUCUGAAUUUAGUUGUUCUGACCUAGAAAGCAUGAAAACUUCUUGUAGUCAUGGUUCCAAUGAUUAUCA,0.579
CAAUCUUAUAUUAAACUGGUAUUUUCAAACAAUAGGAAACUUUUUUUUUUUUUUACAGUUUAGUGUAUCUGGUUUCUACAUGGAAGACUAAACUCAUGCUUAUUGCUAAAUGUGGUCUUU,0.409

# Series 3 — method: protein-binding microarray; molecule type: double-stranded DNA, one strand shown; sample: in vitro; tested at: 250 nM; setting: 60-bp whole probe; with: salmon DNA 0.4 mg/ml; relative to: random background probes; reading: higher = stronger binding; all sequences stand within: GCCTAGCAC … GTCTTGATTCGCTTGACGCTGCTG
# Target: Interferon regulatory factor 7, full length, phosphomimetic (IRF7, Homo sapiens, UniProt Q92985, residues 1-503, S101K/S471D/S472D/S475D/S476D/S477D/S483D/S484D/S487D)
# Chain of UniProt Q92985 (whole entry, unmodified, looked up): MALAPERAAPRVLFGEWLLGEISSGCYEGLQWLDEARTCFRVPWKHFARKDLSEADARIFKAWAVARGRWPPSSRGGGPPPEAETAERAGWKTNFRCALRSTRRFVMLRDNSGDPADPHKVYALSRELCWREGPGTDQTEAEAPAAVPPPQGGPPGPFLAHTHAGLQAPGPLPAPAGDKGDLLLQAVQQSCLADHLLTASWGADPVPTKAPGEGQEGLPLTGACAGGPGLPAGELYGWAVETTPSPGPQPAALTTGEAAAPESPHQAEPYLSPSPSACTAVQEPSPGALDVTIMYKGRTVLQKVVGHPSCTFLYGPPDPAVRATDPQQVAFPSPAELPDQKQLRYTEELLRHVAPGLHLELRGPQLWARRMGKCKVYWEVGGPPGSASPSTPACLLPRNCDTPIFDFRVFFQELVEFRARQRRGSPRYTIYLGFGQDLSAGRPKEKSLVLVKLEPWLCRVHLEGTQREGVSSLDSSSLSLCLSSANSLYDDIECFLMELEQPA
Oligonucleotide,log fluorescence [z-score]
GAGGGTTTCGGTCTCGGGACGTGCTAG,5.46
GACGGTATCGACTATCGGAACGTGCTA,0.086
TTAGGTATCGACACTGGCTTAGTGCTA,-0.401
GACGATTTCAGTTCCAAGACGTGCTAG,0.645
TTAGGTGTCGACTTTCGGTTAGTGCTA,1.08
AATGGAACAAATATGTTTATGTGCTAG,0.0138
TTACAGATGTTTTTCATTTTGTGCTAG,1.09
TCACATTGCCTATTTTTCACTGTGCTA,0.849
TTAGAACTGAATCTCGATTAGTGCTAG,0.201
TTACATTTCAGTCTCGATTAGTGCTAG,2.42
GAAGGTATCCTTATCCTGACGTGCTAG,0.114
GGCGGTCTCGGACTGGGGACGTGCTAG,0.0841
TCAGAACTGTTTCTTGAACTGTGCTAG,0.441
GACGGACTGGACTATCAGGACGTGCTA,-0.721
AGTGTTTCCCCTATTTAAGAGTGCTAG,2.52
GACAATCTCAGTATCGAGACGTGCTAG,0.116
TCATTTTTCTACTTCTGACTGTGCTAG,2.2
TTAGATAGCGGGTTTCGATTAGTGCTA,6.36
TCATGTCTCAGAGTCCTACTGTGCTAG,0.146

# Series 4 — method: RNA Bind-n-Seq; molecule type: RNA; sample: in vitro; tested at: 200 nM; setting: whole 134-nt RNA, ends assumed; with: 150 mM KCl; relative to: input library; reading: higher = stronger binding
# Target: Fragile X messenger ribonucleoprotein 1, C-terminal low-complexity region (Fmr1, Mus musculus, UniProt P35922)
# All sequences stand within: GGGAGUUCUACAGUCCGACGAUC … UGGAAUUCUCGGGUGUCAAGG
Oligonucleotide,log2 enrichment
GUCCUGUGCUACACAUCGUAUGUACCGAAUCGGGUUUUUUUGGGUGGGAAAAAAAGGGAAAGUAUUAUGUUACGCCGUUCGGAUCUGCAC,-0.0755
CACAGACAACACUCACCCACACAGACACAGAGGGAAGGGGUUGGGAUGGGGACAGGGUGCACAGCAGGGCGGGGUAGGACCCCAGCCCCU,1.3
CACAGACAACACGCACCCACACAGACACAGAGGGAAGGGGUUGGGAUGGGGACAGGGUGCACAGCAGGGCGGGGUAGGACUCCAGCCCCU,1.11
ACCAUGCAGGUGGGCAUCUUUGGGAAGUGGGGCAAGGGGGGGAUAGGGAGGGGGGUAACACUUUGGGAACACGUGGUCCCAGGUCGUUUC,0.479
ACCAUGCAGGUGGGCAUCUUUGGGAAGUGGGGCAAGUGGGGGAUAGGGAGGGGGGUAACACUUUGGGAACAGGUGGUCCCAGGUCGUUUC,0.762
GCAGGAAGUAAAAACCAAUGGAAAUGCUUCGGAUAGUGGCAGGGGUGGGGGUUGCUAAGGAAAGGGUGGGAUGGGAGUGGGUAAAGAGUU,0.652
CCUGUGCUACACAUCGUAUGUACCGAAUCGGGGUUUUUUUGGGGUUUUUUUGGGGAGGGGAAAGUAUUAUGUUACGCCGUUCGGAUCUGC,0.439
ACCAUGCAGGUGGGCAUCUUUGGGAAGUGGGGCAAGGUGGGGAUAGGGAGGGGGGUAACACUUUGGGAACAGGUGGUCCCAGGUCGUUUC,0.787
CAAGUCCUGUGCUACACAUCGUAUGUACCGAAUCGGUUUUGGUUUUGGGUUUUGGGAAAGUAUUAUGUUACGCCGUUCGGAUCUGCACUU,-0.772

# Repeated from above (series 2):
Oligonucleotide,bound/input enrichment [ratio]
AGCUUCUGGCGACAUUUGGCCUGGCCUUUCAGCAUAUGAUAACAGUCCAAGGUCACCCCAUAGUCCUUCAAUUGCCACCCCACCUAGUCAGAGUUCAUCUUGCUCUGAUGCCCCUUUGCU,0.747
GAAAUUCCCCAUUGUCACUGAGAACCACCAAAUCUGACUUUUACAUUUGGUCUCAGAAUUUAGGUUCCUGCCCCCCCCUUCCCCCCUUUUUUUUAAACAGUUUUCAAAAGUUCUUAAAGG,0.494
AUGUUGUGUCAAAUAUGUCUGCCCAGAUUAGUAUCACCCUAUAAAUAUUAUCAAGAAAUUUACCUAGAGUCUUCUUAGGUAUUGAAUUAUAUAUCCAGCAUUUAAAGUGAAUUUGAGAUG,0.637
CAAUCUUAUAUUAAACUGGUAUUUUCAAACAAUAGGAAACUUUUUUUUUUUUUUACAGUUUAGUGUAUCUGGUUUCUACAUGGAAGACUAAACUCAUGCUUAUUGCUAAAUGUGGUCUUU,0.409
ACGCUUUGAUAUUAAAUUUGACAUAAAAAGCAGCUGAUUGUAAGCACAACUCUCUCCUCCUAGCCAUUUAAAAAGGUAAAAAACAAAAAAGAAAACCUACUAGUCUUGAACAAACUGUCA,0.956
